Measurements of several laboratories.
Lines come from different studies, so protocols differ. Numbers after ± are the reported error.

Compound	test	test system	conditions	how to read	measurement	result
CC(C)(C)OC[C@@H]1C(=O)NCCN1C(=O)C[C@H](N)Cc1cc(F)c(F)cc1F		human	5 mg once daily, day 10		AUC(0-inf) at steady state	245 ± 41.8 ng·h/mL
CC(C)NC[C@@H](C(=O)N1CCN(c2ncnc3c2[C@H](C)C[C@H]3O)CC1)c1ccc(Cl)cc1		human, hepatic impairment Moderate (Child-Pugh), plasma	oral, 100 mg single, geometric mean		AUC(0-inf)	808 ng·h/mL
NS(=O)(=O)OC[C@@H]1C[C@@H](n2ccc3c(N[C@H]4CCc5ccccc54)ncnc32)C[C@@H]1O		human	intravenous, 15 mg/m^2, added: itraconazole	reference: with over without itraconazole	AUC(0-inf) ratio	133%
[2H]C([2H])([2H])Oc1cc2c(cc1OC([2H])([2H])[2H])C1CC(=O)C(CC(C)C)CN1CC2 (stereo not shown)	geometric mean ratio, crossover, refers to: alpha-dihydrotetrabenazine	human, fasted, plasma	oral, 15 mg	reference: compound over tetrabenazine 25 mg fasted	AUC(0-inf) ratio	119%
CC[C@H](C)[C@H](NC(=O)[C@H](Cc1ccccc1)NC(=O)[C@H](CCC(=O)O)NC(=O)[C@H](CCCCNC(=O)COCCOCCNC(=O)COCCOCCNC(=O)CC[C@H](NC(=O)CCCCCCCCCCCCCCCCC(=O)O)C(=O)O)NC(=O)[C@H](C)NC(=O)[C@H](C)NC(=O)[C@H](CCC(N)=O)NC(=O)CNC(=O)[C@H](CCC(=O)O)NC(=O)[C@H](CC(C)C)NC(=O)[C@H](Cc1ccc(O)cc1)NC(=O)[C@H](CO)NC(=O)[C@H](CO)NC(=O)[C@@H](NC(=O)[C@H](CC(=O)O)NC(=O)[C@H](CO)NC(=O)[C@@H](NC(=O)[C@H](Cc1ccccc1)NC(=O)[C@@H](NC(=O)CNC(=O)[C@H](CCC(=O)O)NC(=O)C(C)(C)NC(=O)[C@@H](N)Cc1cnc[nH]1)[C@@H](C)O)[C@@H](C)O)C(C)C)C(=O)N[C@@H](C)C(=O)N[C@@H](Cc1c[nH]c2ccccc12)C(=O)N[C@@H](CC(C)C)C(=O)N[C@H](C(=O)N[C@@H](CCCNC(=N)N)C(=O)NCC(=O)N[C@@H](CCCNC(=N)N)C(=O)NCC(=O)O)C(C)C		human, moderate hepatic impairment	subcutaneous, 0.5 mg single dose	reference: impairment over normal function	AUC(0-inf) ratio	1.02
O=C(NC[C@H]1CN(c2ccc(N3CCOCC3=O)cc2)C(=O)O1)c1ccc(Cl)s1		human, moderate renal impairment, plasma	oral, 10 mg, added: erythromycin at steady state	reference: same subjects, compound alone	AUC(0-inf) increase	~71%
Cc1ccc(NC(=O)c2ccc(CN3CCN(C)CC3)cc2)cc1Nc1nccc(-c2cncc(-c3oncc3C)c2)n1		older healthy human adults, plasma	oral, 12.5 mg single dose, fed, mean		AUC(0-inf)	9470 ng·h/mL
CCOc1c([C@H](C)n2nc(C)c3c(N)ncnc32)cc(Cl)c(F)c1[C@@H]1CNC(=O)C1		healthy fasted humans, plasma	oral, 20 mg		AUC(0-inf) geometric mean	14.6 µM·h
C=CC(=O)Nc1cc(Nc2ncc(C(=O)OC(C)C)c(-c3cn(C)c4ccccc34)n2)c(OC)cc1N(C)CCN(C)C		human, fasted	oral, 120 mg single dose, geometric mean		AUC(0-inf)	456 ng·h/mL
CCOc1cc([C@@H](CS(C)(=O)=O)N2C(=O)c3cccc(NC(C)=O)c3C2=O)ccc1OC		healthy humans, plasma	30 mg, added: multiple oral rifampicin doses	reference: with rifampicin over alone	AUC(0-inf) ratio	28%
CO[C@H]1C[C@@H]2CC[C@@H](C)[C@@](O)(O2)C(=O)C(=O)N2CCCC[C@H]2C(=O)O[C@H]([C@H](C)C[C@@H]2CC[C@@H](O)[C@H](OC)C2)CC(=O)[C@H](C)/C=C(\C)[C@@H](O)[C@@H](OC)C(=O)[C@H](C)C[C@H](C)/C=C/C=C/C=C/1C		human, whole blood	oral, 25 mg, without grapefruit juice		AUC(0-inf)	1450 ng·h/mL
CC(C)[C@@H](CS(=O)(=O)C(C)C)N1C(=O)[C@@](C)(CC(=O)O)C[C@H](c2cccc(Cl)c2)[C@H]1c1ccc(Cl)cc1		human, plasma	oral, 60 mg, new tablet fasted		AUC(0-inf) geometric LS mean	2990 ng·h/mL
COC(=O)c1ccc2c(c1)NC(=O)/C2=C(\Nc1ccc(N(C)C(=O)CN2CCN(C)CC2)cc1)c1ccccc1		human, healthy, plasma	oral, 50 mg, added: ketoconazole 400 mg	reference: alone	AUC(0-inf) ratio	160%

Some of these lines once more:
Compound	test	test system	conditions	how to read	measurement	result
Cc1ccc(NC(=O)c2ccc(CN3CCN(C)CC3)cc2)cc1Nc1nccc(-c2cncc(-c3oncc3C)c2)n1		older healthy human adults, plasma	oral, 12.5 mg single dose, fed, mean		AUC(0-inf)	9470 ng·h/mL
